Experimental data gathered from unrelated publications.
Protocols differ between the studies behind these lines. “And” joins repeats or separate records; there may be more than shown. ± gives the spread as reported.

SMILES	assay	test system	setting	scale	measurement	value
CC(C)[C@@H]1CC[C@@H](C)C[C@@H]1O	acute oral toxicity OECD	Swiss albino mice, serum	oral, 300 mg/kg	–	total bilirubin	0.58 ± 0.02 mg/dL
Nc1ncnc2c1ncn2[C@@H]1O[C@@H]2COP(=O)([S-])O[C@@H]3[C@H](O)[C@@H](COP([O-])(=S)O[C@H]2[C@H]1O)O[C@H]3n1cnc2c(N)ncnc21.[Na+].[Na+] (stereo partly drawn)	–	non-tumor-bearing mice, serum	intravenous, 1 mg/kg, toxicity study	–	total bilirubin	2.84 ± 0.52 µmol/L
CC(C)C[C@H](NC(=O)[C@H](CCCCN)NC(=O)OCC1c2ccccc2-c2ccccc21)C(=O)N[C@H](C(=O)N[C@@H](Cc1ccccc1)C(=O)N[C@@H](Cc1ccccc1)C(=O)N[C@@H](CCCCN)C(=O)NCC(=O)N[C@@H](Cc1ccccc1)C(=O)N[C@@H](C)C(=O)N[C@@H](Cc1c[nH]c2ccccc12)C(=O)N[C@@H](CC(N)=O)C(=O)N[C@H](C(=O)N[C@H]1CSSC[C@@H](C(=O)N[C@@H](Cc2c[nH]cn2)C(=O)N[C@@H](CCCNC(=N)N)C(=O)N[C@@H](CCCNC(=N)N)C(=O)N[C@@H](C)C(=O)N[C@@H](CC(N)=O)C(N)=O)NC(=O)[C@H](C(C)C)NC(=O)[C@H](CCCNC(=N)N)NC(=O)[C@H](C(C)C)NC(=O)CNC(=O)[C@H](CC(N)=O)NC(=O)[C@H](CCCNC(=N)N)NC(=O)[C@H](Cc2ccc(O)cc2)NC(=O)[C@H](C(C)C)NC1=O)C(C)C)C(C)C	–	ICR mice, serum	intraductal mammary, 10 mg/kg, day 5	–	total protein	53.8 ± 1.77 g/L
CN1CCN(S(=O)(=O)c2cc([N+](=O)[O-])ccc2N(CCOS(C)(=O)=O)CCOS(C)(=O)=O)CC1	–	naive NOD/SCID mice, pooled blood	intraperitoneal, 18.8 mg/kg, week 4	–	total protein	59 g/L
C[C@H]1COCCN1c1nc(NCc2cccnc2C(F)(F)F)c2cccnc2n1	–	BALB/c mice	intravenous, 5 mg/kg	–	total clearance	7.78 mL/min/kg
CC(C)[C@@H]1NC(=O)CNC(=O)[C@H](CC(N)=O)NC(=O)[C@H](CCCNC(=N)N)NC(=O)[C@H](Cc2ccc(O)cc2)NC(=O)[C@H](C(C)C)NC(=O)[C@@H](NC(=O)[C@@H](NC(=O)[C@H](CC(N)=O)NC(=O)[C@H](Cc2c[nH]c3ccccc23)NC(=O)[C@H](C)NC(=O)[C@H](Cc2ccccc2)NC(=O)CN)C(C)C)CSSC[C@@H](C(=O)N[C@@H](Cc2cnc[nH]2)C(=O)N[C@@H](CCCNC(=N)N)C(=O)N[C@@H](CCCNC(=N)N)C(=O)N[C@@H](C)C(=O)N[C@@H](CC(N)=O)C(N)=O)NC(=O)[C@H](C(C)C)NC(=O)[C@H](CCCNC(=N)N)NC1=O	–	ICR mice, serum	intraductal mammary, 10 mg/kg, day 5	–	total protein	51.9 ± 1.14 g/L
CCN(CC)CCCC(C)Nc1ccnc2cc(Cl)ccc12 (stereo not drawn)	–	female SCID mice	sc, 50 mg/kg daily, day 14	direction not given	total severity score	0
COc1cccc(Oc2ccccc2NC(=O)CNC(=O)c2cccc3ccccc23)c1	–	esterase-deficient SCID mice, male	oral, 15 mg/kg/day, 14 days, toxicity study	–	total protein	50 g/L and 52 g/L and 53 g/L
C/C=C1/CN2CC[C@]34C(=C(C(=O)OC)[C@H]1C[C@H]23)Nc1ccc(Br)cc14	novelty-induced hyperlocomotion	CD-1 mice	subcutaneous, 10 mg/kg, 0 to 30 min cumulative, horizontal and stereotypic activity	–	total distance	decreased

A few entries again:
SMILES	assay	test system	setting	scale	measurement	value
CCN(CC)CCCC(C)Nc1ccnc2cc(Cl)ccc12 (stereo not drawn)	–	female SCID mice	sc, 50 mg/kg daily, day 14	direction not given	total severity score	0
